Measured values pooled from the literature.
Compare with care: the assays were run in different laboratories.
Organism: Staphylococcus aureus

CN[C@H](CC(C)C)C(=O)N[C@H]1C(=O)N[C@@H](CC(N)=O)C(=O)N[C@H]2C(=O)N[C@H]3C(=O)N[C@H](C(=O)N[C@H](C(=O)O)c4cc(O)cc(O)c4-c4cc3ccc4O)[C@H](O)c3ccc(c(Cl)c3)Oc3cc2cc(c3O[C@@H]2O[C@H](CO)[C@@H](O)[C@H](O)[C@H]2O[C@H]2C[C@](C)(NCc3ccc(OCc4cn(CC(=O)N[C@H](C(=O)N[C@@H](CCN)C(=O)N[C@H]5CCNC(=O)[C@H]([C@@H](C)O)NC(=O)[C@H](CCN)NC(=O)[C@H](CCN)NC(=O)[C@H](CC(C)C)NC(=O)[C@@H](CC(C)C)NC(=O)[C@H](CCN)NC5=O)[C@@H](C)O)nn4)c(OC)c3)[C@H](O)[C@H](C)O2)Oc2ccc(cc2Cl)[C@H]1O  MIC (broth microdilution; VISA LIM-2, tryptic soy broth; 20 to 24 h, 37 °C, 0.002% polysorbate 80): 2 mg/L
CC[C@H](C)[C@H](NC(=O)[C@@H]1CCCN1C(=O)CNC(=O)[C@H](CC(C)C)NC(=O)[C@H](CCCCN)NC(=O)[C@H](CCCNC(=N)N)NC(=O)[C@H](Cc1c[nH]c2ccccc12)NC(=O)[C@H](C)NC(=O)[C@H](CC(N)=O)NC(=O)[C@H](CCCCN)NC(=O)[C@H](CC(C)C)NC(=O)[C@H](CCCCN)NC(=O)[C@H](CC(N)=O)NC(=O)[C@H](CCCNC(=N)N)NC(=O)[C@H](C)NC(=O)[C@H](CCCNC(=N)N)NC(=O)[C@H](CCCNC(=N)N)NC(=O)[C@H](Cc1ccccc1)NC(=O)[C@H](Cc1c[nH]c2ccccc12)NC(=O)CN)C(=O)N[C@H](C(=O)NCC(=O)N1CCC[C@H]1C(=O)N[C@@H](CC(C)C)C(=O)N[C@@H](CC(C)C)C(=O)N[C@H](C(=O)N[C@@H](CCCNC(=N)N)C(=O)O)[C@@H](C)O)C(C)C  MIC (broth microdilution; ATCC 25923, Mueller-Hinton broth; 16 to 20 h, 37 °C): 1.1 mg/L
CC[C@H](C)[C@@H]1NC(=O)[C@H](C(C)C)NC(=O)[C@H](C(C)C)NC(=O)[C@H](CC(C)C)NC(=O)C[C@@H](C(=O)N[C@@H](Cc2c[nH]c3ccccc23)C(=O)N[C@@H](CC(N)=O)C(=O)N[C@@H](C)C(=O)N2CCC[C@H]2C(=O)NCC(=O)N[C@@H](Cc2c[nH]c3ccccc23)C(=O)N[C@@H](Cc2ccccc2)C(=O)O)NC(=O)[C@H](C)NC(=O)[C@H](CCC(N)=O)NC(=O)[C@H](C(C)C)NC1=O  MIC (ATCC 29213): > 32 mg/L
CC(C)C[C@@H](NC(=O)[C@@H](CCCNC(=N)N)NC(=O)[C@H](N)CCCNC(=N)N)C(=O)N[C@H](CC(C)C)C(=O)N[C@H](CCCNC(=N)N)C(=O)N[C@H](CCCCN)C(=O)N[C@H](CC(C)C)C(=O)N[C@H](CCCCN)C(=O)NCC(=O)N[C@H](CCCCN)C(=O)N[C@H](CCCCN)C(=O)N[C@H](CC(C)C)C(=O)N[C@H](Cc1ccc(O)cc1)C(=O)N[C@H](CC(C)C)C(=O)N[C@H](Cc1ccc(O)cc1)C(=O)N[C@H](Cc1ccccc1)C(=O)N[C@H](CCCCN)C(=O)N[C@H](CC(C)C)C(=O)N[C@H](CCC(N)=O)C(=O)N[C@H](CC(C)C)C(=O)N[C@H](CC(C)C)C(=O)N[C@H](CCCCN)C(=O)N[C@H](CCCCN)C(N)=O  MIC (KCTC 1621, Mueller-Hinton broth; together with: 1 mM MgCl2): 16 µM
CC[C@H]1OC(=O)[C@H](C)[C@@H](OC(=O)Cc2ccccc2)[C@H](C)[C@@H](O[C@@H]2O[C@H](C)C[C@H](N(C)C)[C@H]2O)[C@](C)(OC)C[C@@H](C)C(=O)[C@H](C)[C@@H](O)[C@]1(C)O  MIC (DSM 20231 MSSA): 4 mg/L
CN[C@H](CC(C)C)C(=O)N[C@H]1C(=O)N[C@@H](CC(N)=O)C(=O)N[C@H]2C(=O)N[C@H]3C(=O)N[C@H](C(=O)N[C@H](C(=O)N[C@@H](CCCNC(=N)N)C(N)=O)c4cc(O)cc(O)c4-c4cc3ccc4O)[C@H](O)c3ccc(c(Cl)c3)Oc3cc2cc(c3O[C@@H]2O[C@H](CO)[C@@H](O)[C@H](O)[C@H]2O[C@H]2C[C@](C)(NCc3ccc(OCc4cn(CC(=O)N[C@H](C(=O)N[C@@H](CCN)C(=O)N[C@H]5CCNC(=O)[C@H]([C@@H](C)O)NC(=O)[C@H](CCN)NC(=O)[C@H](CCN)NC(=O)[C@H](CC(C)C)NC(=O)[C@@H](CC(C)C)NC(=O)[C@H](CCN)NC5=O)[C@@H](C)O)nn4)c(OC)c3)[C@H](O)[C@H](C)O2)Oc2ccc(cc2Cl)[C@H]1O  MIC (LIM-2 VISA): 3 µM
CCn1c(-c2ccc(F)cc2)c(-c2ccc(F)cc2)n(Cc2ccccc2)c1=[Se]  MIC (microbial growth, broth dilution; ATCC700699 VISA; 24 h, drug-resistant strain): > 40 µM
CC[C@H](C)[C@H](NC(=O)CNC(=O)[C@H](CC(=O)O)NC(=O)[C@H](CCCNC(=N)N)NC(=O)[C@@H](NC(=O)[C@H](Cc1c[nH]cn1)NC(=O)[C@H](CCC(N)=O)NC(=O)CNC(=O)[C@@H](NC(=O)[C@H](CCCNC(=N)N)NC(=O)[C@H](CCC(=O)O)NC(=O)[C@@H](NC(=O)[C@H](CCCCN)NC(=O)[C@H](CCCCN)NC(=O)[C@H](Cc1ccccc1)NC(=O)[C@@H](NC(=O)[C@H](CCCCN)NC(=O)[C@H](Cc1c[nH]c2ccccc12)NC(=O)[C@@H](N)CCCCN)[C@@H](C)CC)[C@@H](C)CC)C(C)C)C(C)C)C(=O)N[C@H](C(=O)N[C@@H](CCCCN)C(=O)N[C@@H](C)C(=O)NCC(=O)N[C@@H](CO)C(=O)N[C@@H](C)C(=O)N[C@H](C(=O)N[C@@H](CCC(N)=O)C(=O)N[C@H](C(=O)N[C@H](C(=O)NCC(=O)N[C@@H](CCC(N)=O)C(=O)N[C@@H](C)C(=O)N[C@@H](C)C(=O)N[C@@H](C)C(=O)N[C@H](C(=O)N[C@@H](C)C(=O)N[C@@H](CCCCN)C(N)=O)[C@@H](C)CC)C(C)C)C(C)C)C(C)C)[C@@H](C)CC  MIC (broth microdilution; 18 h, 37 °C): > 8 µM
CN[C@@H]1[C@H](O)[C@H](NC)[C@H]2O[C@]3(O)[C@H](O[C@@H]2[C@H]1O)O[C@H](C)C[C@H]3NC(=O)Cc1ccc(F)cn1  MIC (microbial growth, broth dilution; 8325): 25 mg/L
CC(C)CCCCCCCCC/C=C/C(=O)N[C@@H](CC(=O)O)C(=O)N[C@H]1CNC(=O)[C@@H]2CCCN2C(=O)[C@H](C(C)C)NC(=O)[C@@H](CN)NC(=O)CNC(=O)[C@H](CC(=O)O)NC(=O)CNC(=O)[C@H](CC(=O)O)NC(=O)[C@H](CC(=O)O)NC(=O)[C@H]2CCCCN2C1=O  MIC (broth microdilution; BR-VRSA strain 880, Mueller-Hinton broth, Mg2+ 10 mg/L; 16 h, together with: Ca2+ 5 mM): 2 mg/L
CC[C@H](C)[C@H](NC(=O)[C@@H](CCCNC(=N)N)NC(=O)[C@H](CCCNC(=N)N)NC(=O)[C@@H]1CCCN1C(=O)[C@@H]1CCCN1C(=O)[C@H](Cc1ccccc1)NC(=O)[C@@H]1CCCN1C(=O)[C@H](CCCNC(=N)N)NC(=O)[C@@H]1CCCN1C(=O)[C@H](CC(C)C)NC(=O)[C@H](Cc1ccc(O)cc1)NC(=O)[C@@H]1CCCN1C(=O)[C@@H]1CCCN1C(=O)[C@H](CCCCN)NC(=O)[C@H](CC(=O)O)NC(=O)[C@@H](N)C(C)C)C(=O)N[C@@H](Cc1ccc(O)cc1)C(=O)N[C@@H](CC(N)=O)C(=O)N[C@H](CCCNC(=N)N)C(N)=O  MIC (broth microdilution; DSM 6247; 18 h, 37 °C, 25% MHB2): > 128 mg/L
N=C(N)NCCC[C@@H]1NC(=O)[C@H](CCCNC(=N)N)NC(=O)[C@@H](CCCNC(=N)N)NC(=O)[C@@H](CCCNC(=N)N)NC(=O)[C@@H](C(c2ccccc2)c2ccccc2)NC(=O)[C@@H](Cc2c[nH]c3ccccc23)NC(=O)[C@@H](C(c2ccccc2)c2ccccc2)NC1=O  MIC (1193193, MRSA): 4 mg/L
Oc1c(Br)cc(Br)c2nc3cc(Cl)ccc3nc12  MIC (broth microdilution; MRSA 1707; 16 h, 37 °C): 0.08 µM
